# Experimental data gathered from unrelated publications.
# Compare with care: the assays were run in different laboratories. Values joined by “and” are separate records of one study, mostly repeats; a detail may differ. ± marks the error that the study gave.
# UniProt Q9Y5L0, sequence (whole entry, looked up): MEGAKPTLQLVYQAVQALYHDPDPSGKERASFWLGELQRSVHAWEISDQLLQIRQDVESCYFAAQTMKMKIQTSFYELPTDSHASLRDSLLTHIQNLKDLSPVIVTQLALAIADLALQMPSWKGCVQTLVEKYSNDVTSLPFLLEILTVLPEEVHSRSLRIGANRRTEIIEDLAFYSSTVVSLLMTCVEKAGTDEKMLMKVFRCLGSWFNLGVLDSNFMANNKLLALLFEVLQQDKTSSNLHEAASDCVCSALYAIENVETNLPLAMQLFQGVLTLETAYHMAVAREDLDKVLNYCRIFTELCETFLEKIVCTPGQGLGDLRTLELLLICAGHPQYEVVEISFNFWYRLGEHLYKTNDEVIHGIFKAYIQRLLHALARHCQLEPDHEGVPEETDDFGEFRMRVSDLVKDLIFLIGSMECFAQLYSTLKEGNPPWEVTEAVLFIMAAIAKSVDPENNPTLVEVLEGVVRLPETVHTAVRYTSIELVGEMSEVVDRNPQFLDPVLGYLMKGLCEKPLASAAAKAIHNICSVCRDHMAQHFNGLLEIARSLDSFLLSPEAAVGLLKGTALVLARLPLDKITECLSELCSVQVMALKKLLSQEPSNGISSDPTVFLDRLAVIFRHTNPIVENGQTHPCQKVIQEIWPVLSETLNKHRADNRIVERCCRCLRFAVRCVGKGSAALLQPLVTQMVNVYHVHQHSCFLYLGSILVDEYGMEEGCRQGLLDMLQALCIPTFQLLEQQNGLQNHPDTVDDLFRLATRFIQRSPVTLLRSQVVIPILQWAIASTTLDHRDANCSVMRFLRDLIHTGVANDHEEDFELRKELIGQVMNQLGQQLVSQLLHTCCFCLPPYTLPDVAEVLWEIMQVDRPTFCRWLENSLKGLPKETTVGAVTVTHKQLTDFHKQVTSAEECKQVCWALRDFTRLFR
# UniProt P78417, sequence (whole entry, looked up): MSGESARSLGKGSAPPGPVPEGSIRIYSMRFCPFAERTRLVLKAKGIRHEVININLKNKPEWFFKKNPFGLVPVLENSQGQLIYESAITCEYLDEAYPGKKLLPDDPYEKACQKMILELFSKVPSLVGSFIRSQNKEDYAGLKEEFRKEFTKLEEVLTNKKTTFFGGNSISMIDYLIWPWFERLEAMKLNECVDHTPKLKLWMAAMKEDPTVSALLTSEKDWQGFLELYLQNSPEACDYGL
Structure (SMILES),tested on,test,system,conditions,how to read,endpoint,value
CCCCCN1C[C@H](O)[C@@H](O)[C@H](O)[C@@H]1CO,,,Hexb-/- mouse,dose not given,relative to: untreated,survival extension,22%
Cc1cccc(C)c1NC(=O)C1CCCCN1 (stereo not shown),,,"Sprague-Dawley rat, female, sciatic nerve",60 mM,,motor block duration,36 min and 24 min
C=CC(=O)Nc1cc(Nc2ncc(Cl)c(Nc3ccccc3C(=O)C(=O)N(C)C)n2)c(OC)cc1N1CCN(C)CC1,,RECIST v1.1 best response,human EGFR T790M NSCLC,"oral, 25 mg/day, per-protocol set",,patients with partial response,0%
C[C@@H](O)[C@@H](CO)NC(=O)[C@@H](CCCNC(=N)N)NC(=O)[C@@H]1CCCN1C(=O)[C@@H]1CSSC[C@H](NC(=O)[C@H](Cc2ccccc2)NC(=O)CN2CCN(CC(=O)O)CCN(CC(=O)O)CCN(CC(=O)O)CC2)C(=O)N[C@@H](Cc2ccc(O)cc2)C(=O)N[C@@H](Cc2ccccc2)C(=O)N[C@@H](CCC(N)=O)C(=O)N[C@@H](CC(N)=O)C(=O)N1 [gallium-68 labelled],,,"healthy Wistar rat, large intestine","intravenous, 8 MBq, 120 min",,tissue uptake,0.02 %ID/g
C[C@H]1O[C@@H](O[C@H]2CC[C@@]3(C)[C@@H](CC[C@]4(C)[C@@H]3C=C[C@]35OC[C@@]6(CCC(C)(C)C[C@H]63)[C@@H](O)C[C@]54C)[C@]2(C)CO)[C@H](O)[C@@H](O[C@@H]2O[C@H](CO)[C@@H](O)[C@H](O)[C@H]2O)[C@H]1O,,item: PPAR-α,"ethanol-fed mice, hepatic SIRT1 knockdown (AAV8-TBG-SIRT1), liver","dose not given, high dose, unit not given",relative to: AAV8-TBG-Null ethanol group,mRNA level,0.66 and 1.2 and 0.71 and 0.94
Nc1ncnc2c1ncn2[C@@H]1O[C@@H]2COP(=O)(O)O[C@H]3[C@@H](O)[C@H](n4cnc5c(=O)[nH]cnc54)O[C@@H]3COP(=O)(O)O[C@H]2[C@H]1O,Zika virus,"downregulated Reactome pathway, RNA sequencing, item: Nervous system development (R-HSA-9675108)",HFF-1,,relative to: ZIKV-infected untreated,fold enrichment,2.48
CO[C@H]1C[C@@H]2CC[C@@H](C)[C@@](O)(O2)C(=O)C(=O)N2CCCC[C@H]2C(=O)O[C@H]([C@H](C)C[C@@H]2CC[C@@H](OC(=O)NCCOCCOCCOCCOCCOCCOCCOCCOCCC(=O)N3CCc4cc(Cn5nc(-c6ccc7oc(N)nc7c6)c6c(N)ncnc65)ccc4C3)[C@H](OC)C2)C[C@@H](O)[C@H](C)/C=C(\C)[C@@H](O)[C@@H](OC)C(=O)[C@H](C)C[C@H](C)/C=C/C=C/C=C/1C,,,patients with advanced solid tumours,"intravenous, 8 mg weekly, any grade",,mucositis incidence,56.3%
O=C(O)/C=C/C(=O)O.Oc1cccc2[nH]cc(CCNCc3ccccc3)c12,,,C57BL/6J mice,"subcutaneous, 3 mg/kg",relative to: pre-session baseline,body temperature change,-0.1 ± 0.1 °C
O=S(=O)(O)C(F)(F)C(F)(F)C(F)(F)C(F)(F)F,,"RNA-seq pathway analysis, item: fatty acid β-oxidation genes",liver spheroids,"top non-cytotoxic, 10 d",,gene expression,increased
C=CC(=O)N[C@H]1C=C(C)c2c(-c3cnc4ccccc4c3)c3c(N)ncnc3n2C1,,,"mice, NCI-H2073 vs LXF 2478 xenografts","highest clinically relevant dose, unit not given",relative to: NCI-H2073 minus LXF 2478,growth rate difference,0.0127
O=C(c1ccc(Cl)cc1)N1CCN2C(=O)N(OC(=O)N3CCOc4ccccc43)C(=O)C2C1 (stereo not shown),"GSTO1 (Homo sapiens, UniProt P78417)",MS-based ABPP,SW-620 conditioned medium,10 µM,"relative to: compound over DMSO, lower = more inhibition",peptide ratio,1.12
Cc1nc(Nc2ccc(CC(=O)O)cc2)nc(Nc2ccc(F)c(C(F)(F)F)c2)c1C,,,"C57BL/6J mouse, high-fat diet MASH model, liver","intraperitoneal, 0.3 mg/kg daily, 60% fat diet for 12 weeks, dosed final four weeks",relative to: untreated,PPAR-gamma expression,no effect
Cc1cn(-c2cc(NC(=O)c3ccc(C)c(Nc4nccc(-c5cccnc5)n4)c3)cc(C(F)(F)F)c2)cn1,,,Alzheimer's disease patients,"150 mg, 6 months, group mean",direction not given,CDR-SOB score,6.3 ± 2.4
Cc1c(C(=O)NN2CCCCC2)nn(-c2ccc(Cl)cc2Cl)c1-c1ccc(I)cc1,,,B6SJL mice,"dose not given, compound alone",,tail-flick latency,no effect
[131I-].[Na+],,,hyperthyroidism patients,"185 MBq, 6 months, long-term follow-up",,hypothyroid patients,48%
CCCCCOc1ccc(-c2ccc(-c3ccc(C(=O)N[C@H]4C[C@@H](O)[C@@H](O)NC(=O)[C@@H]5[C@@H](O)[C@@H](C)CN5C(=O)[C@H]([C@@H](C)O)NC(=O)[C@H]([C@H](O)[C@@H](O)c5ccc(O)cc5)NC(=O)[C@@H]5C[C@@H](O)CN5C(=O)[C@H]([C@@H](C)O)NC4=O)cc3)cc2)cc1,,calcein leakage,DOPC/CHOL liposomes,"concentration not given, added: 20 wt% PEG-8000",,fusion time constant,3 ± 1 min
COc1cc(CCC[P+](c2ccccc2)(c2ccccc2)c2ccccc2)c(OC)c2c1OCO2.[I-],OVCAR-5,SRB,,,,TGI,-4.43 log M
C[C@H]1CN(c2n[nH]c3nc(N[C@H]4CC[C@H](NS(=O)(=O)CCC(F)(F)F)CC4)ncc23)CCO1,"Transportin-3 (Homo sapiens, UniProt Q9Y5L0)","Kinobeads competition, item: TNPO3",,"0.16 µM, unit not given",relative to: vehicle,remaining binding,0.88
CN1CCN(S(=O)(=O)c2cc([N+](=O)[O-])ccc2N(CCOS(C)(=O)=O)CCOS(C)(=O)=O)CC1,,,"NSG mice, sample BG PDX","intraperitoneal, 25 mg/kg weekly x3",relative to: vehicle,EFS delay (T-C),255 days
C[C@]12CC[C@H](O)C[C@H]1CC[C@@H]1[C@@H]2CC[C@]2(C)[C@@H](c3ccc(=O)oc3)CC[C@]12O,,,female nude mouse LCC2 xenograft,"0.5 mg/kg, day 9, tamoxifen-resistant",,tumour volume,81.5 mm3 and 57.2 mm3 and 44.6 mm3 and 51.9 mm3 and 45.1 mm3 and 53.5 mm3 and 53.8 mm3
COc1cc2c(Oc3ccc4[nH]c(C)cc4c3F)ccnc2cc1OCC1(N)CC1,,,paediatric recurrent refractory sarcoma,10 mg,,grade 3 weight loss,0%
Cc1cn([C@H]2O[C@@H](CO[P@@](=O)(N[C@@H](C)C(=O)OC(C)C)Oc3ccccc3)[C@H](O)[C@H]2F)c(=O)[nH]c1=O,,item: detectable HBV DNA,adults with chronic hepatitis B,"25 or 50 mg, week 12, after treatment discontinuation",,virologic relapse,56%
COc1cc(Nc2ncc(F)c(Nc3ccc4c(n3)NC(=O)C(C)(C)O4)n2)cc(OC)c1OC,phorbol ester receptor,,,,,IC50,> 10 µM
CC[C@H](C)[C@H](NC(=O)[C@H](Cc1ccccc1)NC(=O)[C@H](CCC(=O)O)NC(=O)[C@H](CCCNC(=N)N)NC(=O)[C@H](C)NC(=O)[C@H](C)NC(=O)[C@H](CCC(N)=O)NC(=O)[C@H](CCC(=O)O)NC(=O)[C@H](CCC(=O)O)NC(=O)[C@H](CC(C)C)NC(=O)[C@H](Cc1ccc(O)cc1)NC(=O)[C@H](CO)NC(=O)[C@H](CO)NC(=O)[C@@H](NC(=O)[C@H](CC(=O)O)NC(=O)[C@H](CO)NC(=O)[C@@H](NC(=O)[C@H](Cc1ccccc1)NC(=O)[C@@H](NC(=O)CNC(=O)[C@H](CCC(=O)O)NC(=O)[C@H](C)NC(=O)CCc1c[nH]cn1)[C@@H](C)O)[C@@H](C)O)C(C)C)C(=O)N[C@@H](C)C(=O)N[C@@H](Cc1c[nH]c2ccccc12)C(=O)N[C@@H](CC(C)C)C(=O)N[C@H](C(=O)N[C@@H](CCCNC(=N)N)C(=O)NCC(=O)N[C@@H](CCCNC(=N)N)C(=O)N[C@@H](CCCCNC(=O)COCCOCCNC(=O)COCCOCCNC(=O)CC[C@H](NC(=O)CCCCCCCCCCCCCCCCC(=O)O)C(=O)O)C(=O)NCC(=O)NCC(=O)N[C@@H](CO)C(=O)N[C@@H](CCCCNc1c(NCCCCCN(O)C(=O)CCC(=O)NCCCCCN(O)C(=O)CCC(=O)NCCCCCN(O)C(C)=O)c(=O)c1=O)C(=O)O)C(C)C [zirconium-89 labelled],,ex vivo gamma counting,"rat, lung","subcutaneous, 3 nmol/kg, 4 h, added: [89Zr]-labelled peptide",,tissue uptake,1.02 %ID/g
COc1c(CCC[P+](c2ccccc2)(c2ccccc2)c2ccccc2)cc2c(c1OC)OCO2.[I-],SW-620,SRB,,,,TGI,-4.96 log M
CCCCC1(CCCC)CN(c2ccccc2)c2cc(SC)c(OCC(=O)N[C@@H](C(=O)NCC(=O)O)c3ccccc3)cc2S(=O)(=O)C1,,item: HDL cholesterol,"human, serum","20 mg once daily, day 5",,serum HDL-C,50.3 mg/dL
C[C@]1(CO)Cc2ncn(-c3ccc(C#N)c(Cl)c3)c2C(=O)O1,,"aldosterone synthesis, inhibitor, item: potassium","healthy Japanese adults, urine","40 mg, 0-24 h at steady state, multiple rising dose",,urinary excretion,33.9 mmol
C/C=C1\NC(=O)C(C(C)O)NC(=O)C(CCCN)NC(=O)C(CCO)NC(=O)C(CCN)NC(=O)C(CCN)NC(=O)C(NC(=O)CC(O)CCCCCCCCCCC)COC(=O)C(C(O)CCl)NC(=O)C(C(O)C(=O)O)NC1=O (stereo not shown),,calcein leakage,DOPC/DOPG/CHOL liposomes,"concentration not given, added: 20 wt% PEG-8000",,fusion time constant,7 ± 1 min
CC[C@H](C)[C@@H]1NC(=O)[C@@H]2CCCN2C(=O)[C@H](CC(C)C)NC(=O)[C@H](CC(C)C)NC(=O)CNC(=O)[C@@H](NC(=O)[C@@H](NC(=O)[C@H](CC(=O)O)NC(=O)CNC(=O)[C@@H](NC(=O)[C@H](C)NC(=O)CNC(=O)[C@H](CCCCN)NC(=O)[C@H](CC(C)C)NC(=O)[C@H](CC(C)C)NC(=O)[C@H](CCCCN)NC(=O)CNC(=O)[C@@H](NC(=O)[C@@H](N)CC(C)C)C(C)C)C(C)C)C(C)C)CSSC[C@@H](C(=O)O)NC1=O,,"RNA-seq, item: Cd2","mouse, traumatic brain injury model, frontal cortex and hippocampus",dose not given,relative to: TBI alone,log2 fold change,-5.21
N=C(N)NCCC[C@@H]1NC(=O)[C@H](Cc2ccc(O)cc2)NC(=O)[C@@H](CCCCN)NC(=O)[C@@H](Cc2ccccc2)NC1=O,,"maximal contraction, partial agonist",guinea pig ileum,concentration not given,,inhibition,60%
COc1ccc(CCC2CCCC(CCc3ccc(OC)cc3)N2C[C@@H](O)CO)cc1.Cl (stereo in doubt),,methamphetamine-evoked dopamine release,rat striatal slices,"100 µM, added: methamphetamine 5 µM",,time of significant inhibition,45 to 65 min

# A few entries again:
Structure (SMILES),tested on,test,system,conditions,how to read,endpoint,value
CO[C@H]1C[C@@H]2CC[C@@H](C)[C@@](O)(O2)C(=O)C(=O)N2CCCC[C@H]2C(=O)O[C@H]([C@H](C)C[C@@H]2CC[C@@H](OC(=O)NCCOCCOCCOCCOCCOCCOCCOCCOCCC(=O)N3CCc4cc(Cn5nc(-c6ccc7oc(N)nc7c6)c6c(N)ncnc65)ccc4C3)[C@H](OC)C2)C[C@@H](O)[C@H](C)/C=C(\C)[C@@H](O)[C@@H](OC)C(=O)[C@H](C)C[C@H](C)/C=C/C=C/C=C/1C,,,patients with advanced solid tumours,"intravenous, 8 mg weekly, any grade",,mucositis incidence,56.3%
O=C(O)/C=C/C(=O)O.Oc1cccc2[nH]cc(CCNCc3ccccc3)c12,,,C57BL/6J mice,"subcutaneous, 3 mg/kg",relative to: pre-session baseline,body temperature change,-0.1 ± 0.1 °C
C/C=C1\NC(=O)C(C(C)O)NC(=O)C(CCCN)NC(=O)C(CCO)NC(=O)C(CCN)NC(=O)C(CCN)NC(=O)C(NC(=O)CC(O)CCCCCCCCCCC)COC(=O)C(C(O)CCl)NC(=O)C(C(O)C(=O)O)NC1=O (stereo not shown),,calcein leakage,DOPC/DOPG/CHOL liposomes,"concentration not given, added: 20 wt% PEG-8000",,fusion time constant,7 ± 1 min
